Experimental data gathered from unrelated publications.
± gives the spread as reported.
OPRD1: Delta-type opioid receptor (OPRD1, Homo sapiens, UniProt P41143)
UniProt P41143, sequence (whole entry, looked up): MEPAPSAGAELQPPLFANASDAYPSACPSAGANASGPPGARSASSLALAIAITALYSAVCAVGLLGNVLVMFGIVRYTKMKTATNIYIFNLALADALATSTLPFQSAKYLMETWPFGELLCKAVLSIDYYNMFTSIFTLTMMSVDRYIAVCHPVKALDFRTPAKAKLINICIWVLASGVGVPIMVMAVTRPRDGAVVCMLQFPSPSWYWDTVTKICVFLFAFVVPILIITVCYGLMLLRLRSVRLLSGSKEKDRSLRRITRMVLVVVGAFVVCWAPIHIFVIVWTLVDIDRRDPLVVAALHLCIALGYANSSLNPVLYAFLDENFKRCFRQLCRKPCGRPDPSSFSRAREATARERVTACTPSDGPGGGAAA
UniProt P48546, sequence (whole entry, looked up): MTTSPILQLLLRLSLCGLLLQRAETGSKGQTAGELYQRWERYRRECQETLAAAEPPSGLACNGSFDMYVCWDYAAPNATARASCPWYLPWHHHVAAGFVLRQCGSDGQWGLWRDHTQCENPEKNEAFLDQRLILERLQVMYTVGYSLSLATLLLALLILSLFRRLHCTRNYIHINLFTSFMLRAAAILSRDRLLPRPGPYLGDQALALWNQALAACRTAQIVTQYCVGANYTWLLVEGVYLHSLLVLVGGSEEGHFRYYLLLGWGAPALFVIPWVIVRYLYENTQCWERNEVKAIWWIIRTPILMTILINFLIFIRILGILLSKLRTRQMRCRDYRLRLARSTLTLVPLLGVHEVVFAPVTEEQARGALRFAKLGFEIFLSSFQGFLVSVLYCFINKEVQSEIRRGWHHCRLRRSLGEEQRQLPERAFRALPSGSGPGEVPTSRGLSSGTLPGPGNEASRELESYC
UniProt Q96NY8, sequence (whole entry, looked up): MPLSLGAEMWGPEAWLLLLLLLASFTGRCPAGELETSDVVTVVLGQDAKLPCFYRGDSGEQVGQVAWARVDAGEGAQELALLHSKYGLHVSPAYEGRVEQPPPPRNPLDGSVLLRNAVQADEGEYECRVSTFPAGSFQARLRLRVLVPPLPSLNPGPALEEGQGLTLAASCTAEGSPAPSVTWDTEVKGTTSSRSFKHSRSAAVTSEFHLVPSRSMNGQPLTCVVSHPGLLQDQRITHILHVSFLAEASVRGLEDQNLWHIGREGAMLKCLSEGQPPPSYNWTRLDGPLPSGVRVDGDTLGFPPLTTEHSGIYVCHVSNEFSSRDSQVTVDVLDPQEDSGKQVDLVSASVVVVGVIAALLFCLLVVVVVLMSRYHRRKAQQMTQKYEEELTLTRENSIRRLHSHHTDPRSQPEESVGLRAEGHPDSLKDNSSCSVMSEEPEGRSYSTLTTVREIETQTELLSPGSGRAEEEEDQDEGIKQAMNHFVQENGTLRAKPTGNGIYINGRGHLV
UniProt P33533, sequence (whole entry, looked up): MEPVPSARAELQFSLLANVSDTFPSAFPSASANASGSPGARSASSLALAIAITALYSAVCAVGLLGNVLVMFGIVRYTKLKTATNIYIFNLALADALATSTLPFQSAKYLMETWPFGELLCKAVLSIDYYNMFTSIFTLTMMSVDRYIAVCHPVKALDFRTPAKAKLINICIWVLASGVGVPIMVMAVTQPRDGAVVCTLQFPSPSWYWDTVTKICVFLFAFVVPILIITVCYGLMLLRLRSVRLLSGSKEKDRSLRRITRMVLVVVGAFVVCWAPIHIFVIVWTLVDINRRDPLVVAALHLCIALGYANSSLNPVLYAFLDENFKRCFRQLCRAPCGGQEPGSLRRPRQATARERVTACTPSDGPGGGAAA
UniProt P41145, sequence (whole entry, looked up): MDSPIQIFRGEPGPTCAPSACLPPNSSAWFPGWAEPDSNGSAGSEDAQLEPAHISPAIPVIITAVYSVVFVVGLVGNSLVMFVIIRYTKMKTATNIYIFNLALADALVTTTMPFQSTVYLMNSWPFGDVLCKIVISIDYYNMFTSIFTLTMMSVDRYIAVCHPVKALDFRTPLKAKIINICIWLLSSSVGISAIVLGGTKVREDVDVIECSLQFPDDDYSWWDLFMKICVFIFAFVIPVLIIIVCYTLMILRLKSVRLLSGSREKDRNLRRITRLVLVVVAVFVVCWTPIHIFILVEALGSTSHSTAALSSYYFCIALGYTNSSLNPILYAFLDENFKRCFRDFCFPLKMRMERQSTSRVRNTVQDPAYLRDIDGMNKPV
UniProt P35372, sequence (whole entry, looked up): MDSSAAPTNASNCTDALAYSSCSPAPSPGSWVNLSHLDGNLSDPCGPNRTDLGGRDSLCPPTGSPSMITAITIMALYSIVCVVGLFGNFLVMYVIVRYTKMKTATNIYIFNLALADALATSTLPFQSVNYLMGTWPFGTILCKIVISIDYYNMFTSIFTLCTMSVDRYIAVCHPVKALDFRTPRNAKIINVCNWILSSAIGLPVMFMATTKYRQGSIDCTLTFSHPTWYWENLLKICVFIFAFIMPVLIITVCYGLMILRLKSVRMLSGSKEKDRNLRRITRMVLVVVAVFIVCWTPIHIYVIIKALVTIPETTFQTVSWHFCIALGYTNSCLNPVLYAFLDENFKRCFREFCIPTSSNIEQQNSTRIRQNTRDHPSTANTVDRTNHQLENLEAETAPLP
UniProt P43220, sequence (whole entry, looked up): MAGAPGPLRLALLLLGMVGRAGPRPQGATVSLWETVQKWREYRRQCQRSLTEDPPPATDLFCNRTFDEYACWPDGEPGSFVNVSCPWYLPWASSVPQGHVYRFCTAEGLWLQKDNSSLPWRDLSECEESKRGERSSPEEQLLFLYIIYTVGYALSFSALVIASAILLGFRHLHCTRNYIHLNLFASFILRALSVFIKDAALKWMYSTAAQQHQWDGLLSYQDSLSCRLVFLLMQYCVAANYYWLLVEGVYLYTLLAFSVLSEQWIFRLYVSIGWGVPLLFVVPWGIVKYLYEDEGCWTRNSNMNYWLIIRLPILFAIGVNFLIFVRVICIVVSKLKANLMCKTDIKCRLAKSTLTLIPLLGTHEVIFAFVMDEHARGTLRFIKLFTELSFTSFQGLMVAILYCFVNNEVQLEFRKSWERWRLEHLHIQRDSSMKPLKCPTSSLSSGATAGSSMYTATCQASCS
UniProt P04618, sequence (whole entry, looked up): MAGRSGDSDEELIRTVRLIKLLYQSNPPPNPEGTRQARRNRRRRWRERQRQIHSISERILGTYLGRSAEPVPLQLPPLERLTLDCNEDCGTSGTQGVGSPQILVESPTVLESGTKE
UniProt A0A125YHX7, sequence (whole entry, looked up): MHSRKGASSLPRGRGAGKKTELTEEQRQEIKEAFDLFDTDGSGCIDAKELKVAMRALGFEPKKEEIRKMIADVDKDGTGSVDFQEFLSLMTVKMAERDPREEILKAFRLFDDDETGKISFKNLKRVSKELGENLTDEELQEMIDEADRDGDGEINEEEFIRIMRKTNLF

CSCC[C@H](NC(=O)[C@H](Cc1ccccc1)NC(=O)CNC(=O)CNC(=O)[C@@H](N)Cc1ccc(O)cc1)C(=O)N[C@H](C(=O)N[C@@H](CO)C(=O)N[C@@H](CCC(=O)O)C(=O)N[C@@H](CCCCN)C(=O)O)[C@@H](C)O  EC50 (Oprd1 (Rattus norvegicus, UniProt P33533); cAMP, agonist): ~44 nM
CC(C)C[C@H](NC(=O)[C@H](CO)NC(=O)[C@H](CCCCN)NC(=O)[C@H](CC(C)C)NC(=O)CNC(=O)[C@H](CCCCN)NC(=O)[C@H](CCC(=O)O)NC(=O)CNC(=O)[C@H](CC(C)C)NC(=O)[C@H](CC(N)=O)NC(=O)[C@@H]1CCCN1C(=O)[C@H](CC(C)C)NC(=O)[C@H](Cc1ccccc1)NC(=O)CNC(=O)[C@H](NC(=O)[C@@H](N)Cc1ccc(O)cc1)[C@H](C)O)C(N)=O  Ki (OPRD1; ligand displacement, radioligand; pH 7.5, cell membranes): 13 nM
CCCCCCCCCCCCCCCC(=O)N[C@@H](CCC(=O)NCCCC[C@H](NC(=O)[C@H](CC(=O)O)NC(=O)[C@H](CO)NC(=O)[C@@H](NC(=O)[C@H](Cc1ccccc1)NC(=O)[C@@H](NC(=O)CNC(=O)[C@H](CCC(N)=O)NC(=O)[C@H](C)NC(=O)[C@@H](Cc1ccc(O)cc1)NC(C)=O)[C@@H](C)O)[C@@H](C)O)C(=O)N[C@@H](CO)C(=O)N[C@@H](CCCCN)C(=O)N[C@@H](Cc1ccc(O)cc1)C(=O)N[C@@H](CC(C)C)C(=O)N[C@@H](CC(=O)O)C(=O)N[C@@H](CCC(=O)O)C(=O)N[C@@H](CCCNC(=N)N)C(=O)N[C@@H](C)C(=O)N[C@@H](C)C(=O)N[C@@H](CCC(N)=O)C(=O)N[C@@H](CC(=O)O)C(=O)N[C@@H](Cc1ccccc1)C(=O)N[C@H](C(=O)N[C@@H](CCC(N)=O)C(=O)N[C@@H](Cc1c[nH]c2ccccc12)C(=O)N[C@@H](CC(C)C)C(=O)N[C@@H](CC(C)C)C(=O)N[C@@H](CCC(=O)O)C(=O)NCC(=O)NCC(=O)N1CCC[C@H]1C(=O)N[C@@H](CO)C(=O)N[C@@H](CO)C(=O)NCC(=O)N[C@@H](C)C(=O)N1CCC[C@H]1C(=O)N1CCC[C@H]1C(=O)N1CCC[C@H]1C(=O)N[C@@H](CO)C(N)=O)C(C)C)C(=O)O  EC50 (GLP1R (Homo sapiens, UniProt P43220); reporter gene, agonist, CRE-luciferase reporter; BHK cells; 3 h, 37 °C, 0% HSA): 0.0022 nM
CC(C)C[C@H](NC(=O)[C@H](CO[C@@H]1O[C@H](CO)[C@@H](O[C@@H]2O[C@H](CO)[C@H](O)[C@H](O)[C@H]2O)[C@H](O)[C@H]1O)NC(=O)[C@H](CCCCN)NC(=O)[C@H](CC(C)C)NC(=O)CNC(=O)[C@H](CCCCN)NC(=O)[C@H](CCC(=O)O)NC(=O)CNC(=O)[C@H](CC(C)C)NC(=O)[C@H](CC(N)=O)NC(=O)[C@@H]1CCCN1C(=O)[C@H](CC(C)C)NC(=O)[C@H](Cc1ccccc1)NC(=O)CNC(=O)[C@H](NC(=O)[C@@H](N)Cc1ccc(O)cc1)[C@H](C)O)C(N)=O  Ki (OPRK1 (Homo sapiens, UniProt P41145); ligand displacement, radioligand; pH 7.5, cell membranes): 8.4 nM
CC[C@H](C)[C@@H]1NC(=O)[C@@H](C)NC(=O)[C@H](CCC(=O)N[C@@H](CCCCN)C(N)=O)NC(=O)[C@@H](C)NC(=O)[C@@H](C)NC(=O)[C@H](Cc2c[nH]c3ccccc23)NC(=O)[C@H](Cc2ccc(O)cc2)NC(=O)[C@H](CCCNC(=N)N)NC(=O)[C@H](Cc2ccc(F)cc2)NC1=O  Kd (Gag polyprotein, p6 deleted (gag, Human immunodeficiency virus type 1 group M subtype B, UniProt P03347); fluorescence anisotropy; HIV-1; with: 100 nM fluorescein-labelled peptide): 800 to 900 nM
CC(C)C[C@H](NC(=O)[C@H](CO[C@@H]1O[C@H](CO)[C@@H](O)[C@H](O)[C@H]1O)NC(=O)[C@H](CCCCN)NC(=O)[C@H](CC(C)C)NC(=O)CNC(=O)[C@H](CCCCN)NC(=O)[C@H](CCC(=O)O)NC(=O)[C@H](C)NC(=O)[C@H](CC(C)C)NC(=O)[C@H](CC(N)=O)NC(=O)[C@@H]1CCCN1C(=O)[C@H](CC(C)C)NC(=O)[C@H](Cc1ccccc1)NC(=O)CNC(=O)[C@H](NC(=O)[C@@H](N)Cc1ccc(O)cc1)[C@H](C)O)C(N)=O  Ki (OPRD1; ligand displacement, radioligand; pH 7.5, cell membranes): 6.3 nM
CC[C@H](C)[C@H](NC(=O)[C@H](CC(C)C)NC(=O)[C@H](CC(C)C)NC(=O)CNC(=O)[C@H](CCCCN)NC(=O)[C@H](C)NC(=O)[C@H](CC(C)C)NC(=O)[C@H](CC(C)C)NC(=O)[C@H](CCCCN)NC(=O)[C@H](Cc1c[nH]c2ccccc12)NC(=O)[C@@H](N)CC(N)=O)C(=O)N[C@@H](CCCNC(=N)N)C(=O)N[C@@H](CCC(=O)O)C(=O)N[C@@H](CCCNC(=N)N)C(=O)N[C@@H](CC(C)C)C(=O)N[C@@H](CCCCN)C(=O)N[C@@H](CCCNC(=N)N)C(=O)O  Kd (Centrin-1, C-terminal domain (CEN1, Toxoplasma gondii, UniProt A0A125YHX7); isothermal titration calorimetry; pH 7.5, 25 °C, 5 mM EGTA): 50.1 ± 9.7 nM
Cc1cc(O)cc(C)c1C[C@H](N)C(=O)NCC(=O)NCC(=O)N[C@@H](Cc1ccccc1)C(=O)N[C@H](C(=O)NCC(=O)N[C@@H](C)C(=O)N[C@@H](CCCNC(=N)N)C(=O)N[C@@H](CCCCN)C(=O)N[C@@H](CO)C(=O)N[C@@H](C)C(=O)N[C@@H](CCCNC(=N)N)C(=O)N[C@@H](CCCCN)C(N)=O)[C@@H](C)O  EC50 (OPRM1 (Homo sapiens, UniProt P35372); calcium mobilisation, agonist; CHO with Gαqi5; mu receptor): 16.6 nM
CC[C@H](C)[C@@H]([C@@H](CC(=O)N1CCC[C@H]1[C@H](OC)[C@@H](C)C(=O)N[C@H](C)[C@@H](O)c1ccccc1)OC)N(C)C(=O)[C@@H](NC(=O)[C@H](C(C)C)N(C)C(=O)OCc1ccc(NC(=O)[C@H](CCCNC(N)=O)NC(=O)[C@@H](NC(=O)CCCC(=O)NCCC(=O)N(C)CC(=O)N(C)CC(=O)N(C)CC(=O)N(C)CC(=O)N(C)CC(=O)N(C)CC(=O)N(C)CC(=O)N(C)CC(=O)N(C)CC(=O)N(C)CC(=O)N[C@H]2CSCCC(=O)N3CN4CN(C3)C(=O)CCSC[C@H](NC(=O)[C@@H](CC(=O)O)NC(=O)[C@H](Cc3cccc5ccccc35)NC(=O)[C@@H]3CCCN3C2=O)C(=O)N[C@@H](CCSC)C(=O)N[C@@H](CCCCNC(=N)N)C(=O)N[C@@H](CC(=O)O)C(=O)N[C@@H](Cc2c[nH]c3ccccc23)C(=O)N[C@@H](CO)C(=O)N[C@@H]([C@@H](C)O)C(=O)N2CCC[C@H]2C(=O)N2C[C@H](O)C[C@H]2C(=O)N[C@@H](Cc2c[nH]c3ccccc23)C(=O)N[C@H](C(N)=O)CSCCC4=O)C(C)C)cc1)C(C)C  Kd (Nectin-4 (Homo sapiens, UniProt Q96NY8); binding, SPR): 2.5 nM
C[C@H](NC(=O)[C@H](C)NC(=O)[C@@H]1CCCN1C(=O)[C@@H](N)Cc1ccc(O)cc1)C(=O)N[C@@H](CO)C(=O)N[C@@H](Cc1ccc(O)cc1)C(=O)N[C@@H](CCCNC(=N)N)C(=O)O  Kd (Protein Rev (Human immunodeficiency virus type 1 group M subtype B, UniProt P04618); binding, fluorescence polarization; HIV; with: fluorescein-labelled parent peptide): 217 ± 22 nM
CC[C@H](C)[C@H](NC(=O)[C@H](CCCN)NC(=O)[C@H](CC(=O)O)NC(=O)[C@H](CC(C)C)NC(=O)C(C)(CC(C)C)NC(=O)[C@@H](NC(=O)[C@H](CO)NC(=O)[C@H](Cc1ccc(O)cc1)NC(=O)[C@H](CC(=O)O)NC(=O)[C@H](CO)NC(=O)[C@@H](NC(=O)[C@H](Cc1ccccc1)NC(=O)[C@@H](NC(=O)CNC(=O)[C@H](CCC(=O)O)NC(=O)C(C)(C)NC(=O)[C@@H](N)Cc1ccc(O)cc1)[C@@H](C)O)[C@@H](C)CC)[C@@H](C)CC)C(=O)N[C@@H](Cc1c[nH]cn1)C(=O)N[C@@H](CCC(N)=O)C(=O)NC(C)(C)C(=O)N[C@@H](CC(=O)O)C(=O)N[C@@H](Cc1ccccc1)C(=O)N[C@H](C(=O)N[C@@H](CCC(=O)O)C(=O)N[C@@H](Cc1ccc(O)cc1)C(=O)N[C@@H](CCCCNC(=O)COCCOCCNC(=O)COCCOCCNC(=O)CC[C@H](NC(=O)CCCCCCCCCCCCCCCCCCC(=O)O)C(=O)O)C(=O)N[C@@H](CC(C)C)C(=O)N[C@@H](CCC(=O)O)C(=O)NCC(=O)NCC(=O)N1CCC[C@H]1C(=O)N[C@@H](CO)C(=O)N[C@@H](CO)C(=O)NCC(=O)N[C@@H](C)C(=O)N1CCC[C@H]1C(=O)N1CCC[C@H]1C(=O)N1CCC[C@H]1C(=O)N[C@@H](CO)C(N)=O)C(C)C (stereo partly drawn)  EC50 (GIPR (Homo sapiens, UniProt P48546); cAMP accumulation, agonist; HEK293 low GIPR expression; with: albumin, human serum, 0.1%, casein 1.0%): 10.2 nM
CC(C)C[C@H](NC(=O)[C@H](CO[C@@H]1O[C@H](CO)[C@@H](O)[C@H](O)[C@H]1O)NC(=O)[C@H](CCCCN)NC(=O)[C@H](CC(C)C)NC(=O)CNC(=O)[C@H](CCCCN)NC(=O)[C@H](CCC(=O)O)NC(=O)CNC(=O)[C@H](CC(C)C)NC(=O)[C@H](CC(N)=O)NC(=O)[C@@H]1CCCN1C(=O)[C@H](CC(C)C)NC(=O)[C@H](Cc1ccccc1)NC(=O)CNC(=O)[C@H](NC(=O)[C@@H](N)Cc1ccc(O)cc1)[C@H](C)O)C(N)=O  Ki (OPRD1; ligand displacement, radioligand; pH 7.5, cell membranes): 7.1 nM
